Measured values from different studies.
A part holds a random share of what one study measured.

Set 1 — effect on: enzyme activity; mode: inhibitor; technique: radiometric; concentration: 0.5 µM
Target: Leukocyte tyrosine kinase receptor (LTK, Homo sapiens, UniProt P29376)
Chain of UniProt P29376 (whole entry, looked up): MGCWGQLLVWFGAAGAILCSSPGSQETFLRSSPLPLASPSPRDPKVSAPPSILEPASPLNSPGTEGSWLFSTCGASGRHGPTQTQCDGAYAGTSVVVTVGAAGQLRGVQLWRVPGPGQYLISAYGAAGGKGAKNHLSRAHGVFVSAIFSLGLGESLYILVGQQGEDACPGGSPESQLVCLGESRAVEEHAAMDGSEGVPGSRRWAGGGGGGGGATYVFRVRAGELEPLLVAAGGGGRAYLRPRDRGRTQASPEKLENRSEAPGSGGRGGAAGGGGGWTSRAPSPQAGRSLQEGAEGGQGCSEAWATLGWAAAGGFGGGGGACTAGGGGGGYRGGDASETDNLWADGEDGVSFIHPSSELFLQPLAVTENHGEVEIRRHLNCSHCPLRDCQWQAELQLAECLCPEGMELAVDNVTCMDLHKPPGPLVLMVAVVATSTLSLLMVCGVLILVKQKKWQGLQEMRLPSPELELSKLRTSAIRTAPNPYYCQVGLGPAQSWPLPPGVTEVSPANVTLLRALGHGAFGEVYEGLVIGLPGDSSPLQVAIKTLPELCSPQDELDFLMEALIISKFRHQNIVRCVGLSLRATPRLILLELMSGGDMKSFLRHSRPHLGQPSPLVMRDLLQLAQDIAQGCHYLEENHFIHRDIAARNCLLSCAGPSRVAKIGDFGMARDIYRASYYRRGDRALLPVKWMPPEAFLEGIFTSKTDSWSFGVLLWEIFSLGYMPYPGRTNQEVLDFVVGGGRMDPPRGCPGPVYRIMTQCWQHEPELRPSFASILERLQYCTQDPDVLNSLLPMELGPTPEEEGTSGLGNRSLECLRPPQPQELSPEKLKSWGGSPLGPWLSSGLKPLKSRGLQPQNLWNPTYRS
Compound | remaining activity [%]
CN([C@@H](Cc1ccc(OS(=O)(=O)c2cccc3cnccc23)cc1)C(=O)N1CCN(c2ccccc2)CC1)S(=O)(=O)c1cccc2cnccc12 | 102
COc1cc(OC)c(C=C2C(O)=Nc3ccccc32)c(OC)c1 | 95.3
Cc1cc2ncc(-c3ccccc3)nc2cc1C | 90.3
CCN(CC)CCNC(=O)c1c(C)[nH]c(/C=C2\C(=O)Nc3ccc(F)cc32)c1C | 34.4
N#Cc1c(NC(=O)c2cccc3ccccc23)sc2c1CCCC2 | 102
COc1cc2ncnc(Nc3cccc(Cl)c3)c2cc1OC | 60.3
O=C1c2ccccc2-[n+]2ccc3c([nH]c4ccccc43)c21 | 121
CCN(CC)C(=O)c1ccc(Nc2nc(OCC3CCCCC3)c3[nH]cnc3n2)cc1 | 66.1
Cc1nc2cc3nc(-c4cccs4)cnc3cc2n1C | 95.2
c1ccc(-c2cnc(Nc3ccc(OCCN4CCCC4)cc3)s2)cc1 | 93.8
Nc1cccc(-c2cc3c(Oc4cccc(O)c4)ncnc3[nH]2)c1 | 16.8
O=C(NC(NC(=S)Nc1ccc(F)c([N+](=O)[O-])c1)C(Cl)(Cl)Cl)C(c1ccccc1)c1ccccc1 (centres unmarked) | 91.5
CCN(CC)CCNC(=O)c1c(C)[nH]c(/C=C2\C(=O)Nc3ccc(Cl)cc32)c1C | 11.6
COc1cc2c(cc1OC)-c1[nH]nc(Nc3cccc(F)c3)c1C2 | 93.3

Set 2 — cell line: A-375; concentration: 100 µM; time: 18 h
Structure (SMILES) | viability [%]
C[C@]12CC[C@H]3[C@@H](CCC4=CC(=O)CC[C@@]43C)[C@@H]1CC[C@@H]2OC(=O)CCc1ccccc1 | 17.9
C[C@@H]1[C@H](O)[C@@H](C)/C=C/C=C/CC/C=C/C=C/C=C/C=C/[C@H](O[C@H]2O[C@@H](C)[C@H](O)[C@@H](N)[C@H]2O)C[C@@H]2O[C@](O)(C[C@@H](O)[C@H](O)CC[C@@H](O)C[C@@H](O)C[C@@H](O)CC(=O)O[C@H]1C)C[C@H](O)[C@H]2C(=O)O | 62.7
CC(C)NCC(O)c1ccccc1Cl (centres unmarked) | 88
COP(=O)(OC)C(O)C(Cl)(Cl)Cl (centres unmarked) | 97.5

Set 3 — effect on: enzyme activity; mode: inhibitor; concentration: 10 µM
Target: Calcium/calmodulin-dependent protein kinase type II subunit alpha (CAMK2A, Homo sapiens, UniProt Q9UQM7)
Chain of UniProt Q9UQM7 (whole entry, looked up): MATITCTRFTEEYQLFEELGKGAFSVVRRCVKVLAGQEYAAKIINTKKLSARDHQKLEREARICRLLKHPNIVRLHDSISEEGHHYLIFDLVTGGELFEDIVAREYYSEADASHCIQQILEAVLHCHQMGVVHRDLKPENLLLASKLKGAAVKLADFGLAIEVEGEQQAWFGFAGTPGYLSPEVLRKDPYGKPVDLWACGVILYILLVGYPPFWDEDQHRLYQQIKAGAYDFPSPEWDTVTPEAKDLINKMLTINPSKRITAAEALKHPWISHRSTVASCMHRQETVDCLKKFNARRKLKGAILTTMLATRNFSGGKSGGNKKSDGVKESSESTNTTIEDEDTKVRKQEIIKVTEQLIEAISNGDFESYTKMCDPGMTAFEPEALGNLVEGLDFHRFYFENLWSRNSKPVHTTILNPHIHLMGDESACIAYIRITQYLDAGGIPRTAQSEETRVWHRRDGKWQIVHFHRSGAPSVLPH
Compound | inhibition [%]
C=C(CO)C(=O)O[C@H]1CC(=C)[C@@H]2C[C@H](O)C(=C)[C@@H]2[C@H]2OC(=O)C(=C)[C@@H]21 | 3
Cc1c([C@H](C)[C@@H]2NC[C@@H](C)C[C@H]2O)ccc2c1C[C@H]1[C@H]2CC=C2C[C@@H](O)CC[C@@]21C | -31
O=C1C=C2C=C[C@@H]3C[C@@]2(O1)[C@H]1CCCCN31 | -3
O=C(O)Cc1cnc[nH]1 | -7
CCCCCCC(=O)CCCCCC/C=C/C[C@@H](O)[C@H](O)[C@@](N)(CO)C(=O)O | 0

Set 4 — organism: Sarcocystis neurona; effect on: parasite growth; concentration: 10 µM; setting: secondary screen
SMILES | inhibition [%]
CN1CC[C@@]23CCCC[C@@H]2[C@@H]1Cc1ccc(O)cc13.O=C(O)C(O)C(O)C(=O)O | -38.9
NCCc1ccccn1 | -11.7
CC(C)N(CCC(C(N)=O)(c1ccccc1)c1ccccn1)C(C)C (centres unmarked) | -46.2
CN(C)C(=O)Oc1ccc[n+](C)c1.[Br-] | -0.14
O=C(O)CCCc1ccc(N(CCCl)CCCl)cc1 | -11.1
O=c1c2ccccc2[se]n1-c1ccccc1 | -38.2

A few entries again (set 2):
Structure (SMILES) | viability [%]
C[C@]12CC[C@H]3[C@@H](CCC4=CC(=O)CC[C@@]43C)[C@@H]1CC[C@@H]2OC(=O)CCc1ccccc1 | 17.9
C[C@@H]1[C@H](O)[C@@H](C)/C=C/C=C/CC/C=C/C=C/C=C/C=C/[C@H](O[C@H]2O[C@@H](C)[C@H](O)[C@@H](N)[C@H]2O)C[C@@H]2O[C@](O)(C[C@@H](O)[C@H](O)CC[C@@H](O)C[C@@H](O)C[C@@H](O)CC(=O)O[C@H]1C)C[C@H](O)[C@H]2C(=O)O | 62.7
CC(C)NCC(O)c1ccccc1Cl (centres unmarked) | 88
COP(=O)(OC)C(O)C(Cl)(Cl)Cl (centres unmarked) | 97.5
